# Published values of several laboratories.
# Each numbered part is a random draw from the data of one study; scales do not carry over between parts. Substitutions count along the parent as printed.

# Sample 1
# Target: Ras GTPase-activating protein-binding protein 1, C-terminal RGG region (G3BP1, Homo sapiens, UniProt Q13283)
# UniProt Q13283, sequence (whole entry, looked up): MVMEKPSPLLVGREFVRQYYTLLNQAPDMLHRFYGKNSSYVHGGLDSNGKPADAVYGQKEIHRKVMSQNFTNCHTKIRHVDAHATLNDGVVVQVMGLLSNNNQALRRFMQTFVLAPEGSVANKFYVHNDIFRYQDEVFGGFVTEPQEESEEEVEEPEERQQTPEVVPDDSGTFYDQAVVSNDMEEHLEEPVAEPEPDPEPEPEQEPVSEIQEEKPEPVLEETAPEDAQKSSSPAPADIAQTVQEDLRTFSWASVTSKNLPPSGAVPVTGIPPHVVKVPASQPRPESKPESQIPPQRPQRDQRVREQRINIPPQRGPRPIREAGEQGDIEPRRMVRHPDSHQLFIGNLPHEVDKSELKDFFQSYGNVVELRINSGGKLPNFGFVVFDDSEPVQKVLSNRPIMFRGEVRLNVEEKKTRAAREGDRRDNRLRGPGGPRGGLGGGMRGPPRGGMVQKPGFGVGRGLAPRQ
# Technique: RNA Bind-n-Seq
# Form: RNA
# Medium: in vitro
# Concentration: 1 µM
# Setting: whole 134-nt RNA, ends assumed
# Added: 150 mM KCl
# Baseline: input library
# Reading: higher = stronger binding
Sequence,log2 enrichment
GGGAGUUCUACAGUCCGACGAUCACCAUGCAGGUGAAAAUCUUUGGGAAGUGGGGCAAGGGGGGGAUAGGGAGGGGGGUAACACUUUGGGAACAGGUGGUCCCAGGUCGUUUCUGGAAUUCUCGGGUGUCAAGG,-1.07
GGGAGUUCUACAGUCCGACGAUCCACAGACAACACGCACCCACACAGACACAGAGGGAAGGGGUUGGGAUGGGGACAGGGUGCACAGCAGGGCGGGGUAGCACCCCAGCCCCUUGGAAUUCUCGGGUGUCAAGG,-0.601
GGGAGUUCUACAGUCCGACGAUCACCAUGCAGGUGGGCAUCUUUGGGAAGUGGGGGAAGGGGGGGAUAGGGAGGGGGGUAACACUUUGGGAACAGGUGGUCCCAGGUCGUUUCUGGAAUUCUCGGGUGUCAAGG,-1.1
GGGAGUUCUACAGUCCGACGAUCUCCUGUGCUACACAUCGUAUGUACCGAAUCGGAAAAAAAGGAAAAAAAGGAAAAAAAGGAAAGUAUUAUGUUACGCCGUUCGGAUCUGCAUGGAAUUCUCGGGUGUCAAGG,-1.02
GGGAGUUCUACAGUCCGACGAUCGUCCUGUGCUACACAUCGUAUGUACCGAAUCGGGAAAAAAAGGGUUUUUGGGUUUGGGAAAGUAUUAUGUUACGCCGUUCGGAUCUGCACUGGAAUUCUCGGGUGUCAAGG,-0.329
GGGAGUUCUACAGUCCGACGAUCUGGGCGGUGGAUUUUGUUUAUUUUUUUAGCUCAUUUCCAGGGGUGGGAAUUUUUUUUUAAUAUGUGUCAUGAAUAAAGUUGUUUUUGAAAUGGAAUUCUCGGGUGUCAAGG,4.2
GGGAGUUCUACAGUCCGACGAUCUGUGCUACACAUCGUAUGUACCGAAUCGGUUUUUUUGGGGUUUUUUUGGGGUUUUUUUGGGGAAAGUAUUAUGUUACGCCGUUCGGAUCUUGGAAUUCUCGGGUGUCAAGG,-0.819
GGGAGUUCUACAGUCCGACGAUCUCAAGUCCUGUGCUACACAUCGUAUGUACCGAAUCGGGGUUGGGGUUGGGUUGGAAAGUAUUAUGUUACGCCGUUCGGAUCUGCACUUCCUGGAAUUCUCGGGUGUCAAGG,-0.00836
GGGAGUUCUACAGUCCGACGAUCCCUGUGCUACACAUCGUAUGUACCGAAUCGGGAAAAAAAGGAAAAAAAGGGGAAAAAAAGGAAAGUAUUAUGUUACGCCGUUCGGAUCUGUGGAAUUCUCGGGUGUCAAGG,-1.71
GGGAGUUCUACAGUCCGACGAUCUUCCUCAAGUCCUGUGCUACACAUCGUAUGUACCGAAUCGGAGGAGGUGGAAAGUAUUAUGUUACGCCGUUCGGAUCUGCACUUCCAGCAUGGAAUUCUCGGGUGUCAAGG,-1.42
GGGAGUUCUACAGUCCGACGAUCUGGGAGGUGGAUUUUGUUUAUUUUUUUAGCUCAUUUCCAGGGGUGGGAAUUUUUUUUUAAUAUGUGUCAUGAAUAAAGUUGCUUUUGAAAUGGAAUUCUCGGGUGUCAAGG,3.57
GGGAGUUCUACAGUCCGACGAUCAGUCCUGUGCUACACAUCGUAUGUACCGAAUCGGGGAGGGGUGGGGUUUUUUUGGGGAAAGUAUUAUGUUACGCCGUUCGGAUCUGCACUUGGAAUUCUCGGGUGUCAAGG,1.78
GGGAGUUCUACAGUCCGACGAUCUGGCCCUGGUGGCAUGCGGGGAGGAAGAGGUGGCCUCAUGGAUCGUGGUGGUCCCGGUGGAAUGUUCAGAGGUGGCCGUAGUGGAGACAGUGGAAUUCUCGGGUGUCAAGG,3.29
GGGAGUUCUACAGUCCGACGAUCGCAGGAAGUAAAAACAAAUGGAAAUGCUUCGGAUAGUGGCAGGUGUGGGGGUUGCUAAGGAAAGGGUGGGAUGGGAGUGGGUAAAGAGUUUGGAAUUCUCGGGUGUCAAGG,2.37

# Sample 2
# Target: CCND1, cyclin fold, Cln2 fusion (human)
# Technique: yeast growth competition, sequencing
# Medium: yeast
# Setting: strong parent motif
# Baseline: not given
# Reading: higher = stronger binding
# Parent: RBL2 docking peptide (human); STTRRRLFVENDS; partner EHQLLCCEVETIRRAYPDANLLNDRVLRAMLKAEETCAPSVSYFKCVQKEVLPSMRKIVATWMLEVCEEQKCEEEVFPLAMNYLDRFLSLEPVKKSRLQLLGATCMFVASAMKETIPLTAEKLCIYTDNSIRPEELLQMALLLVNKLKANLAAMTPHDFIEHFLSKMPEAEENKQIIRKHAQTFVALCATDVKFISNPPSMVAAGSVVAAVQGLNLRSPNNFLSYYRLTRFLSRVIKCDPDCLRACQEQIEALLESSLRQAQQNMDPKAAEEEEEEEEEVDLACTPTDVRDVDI
Substitution,normalised enrichment score
R5H,0.471
N11W,0.665
T3G,0.422
S1D,0.503
R6G,-0.056
R5V,0.389
D12A,0.16
R6L,1.37
S1A,0.649
S1F,0.00582
S1Y,0.881
R4P,1.42
T3R,-0.112
L7F,0.16
F8C,0.0357
T2R,0.753
S13R,0.749
V9T,2.02
R5F,-0.365

# Sample 3
# Target: Interferon regulatory factor 7, full length, phosphomimetic (IRF7, Homo sapiens, UniProt Q92985, residues 1-503, S101K/S471D/S472D/S475D/S476D/S477D/S483D/S484D/S487D)
# Technique: protein-binding microarray
# Form: double-stranded DNA, one strand shown
# Medium: in vitro
# Concentration: 250 nM
# Setting: 60-bp whole probe
# Added: salmon DNA 0.4 mg/ml
# Baseline: random background probes
# Reading: higher = stronger binding
# Shared flanks, not repeated: GCCTAGCAC … GTCTTGATTCGCTTGACGCTGCTG
# Target sequence (chain): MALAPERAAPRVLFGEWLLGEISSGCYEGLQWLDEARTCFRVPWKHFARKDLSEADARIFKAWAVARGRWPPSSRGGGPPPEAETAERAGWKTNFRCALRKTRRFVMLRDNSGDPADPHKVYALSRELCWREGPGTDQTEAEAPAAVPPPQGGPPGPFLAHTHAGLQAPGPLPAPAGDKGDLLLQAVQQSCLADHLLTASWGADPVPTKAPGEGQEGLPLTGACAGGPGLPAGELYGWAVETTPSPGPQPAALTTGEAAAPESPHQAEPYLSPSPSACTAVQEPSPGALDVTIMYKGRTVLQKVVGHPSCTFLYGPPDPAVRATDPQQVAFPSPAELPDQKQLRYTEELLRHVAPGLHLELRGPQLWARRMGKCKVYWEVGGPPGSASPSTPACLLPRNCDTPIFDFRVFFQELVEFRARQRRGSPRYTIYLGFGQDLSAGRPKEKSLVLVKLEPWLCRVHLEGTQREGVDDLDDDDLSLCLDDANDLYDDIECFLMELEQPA
Sequence,log fluorescence [z-score]
TTGCATCGTAAGCAAAAATGGTGCTAG,-0.341
TTAGAACTGAGTTTCGATTTGTGCTAG,12.9
GACGGTTTCGGTGTCGGGACGTGCTAG,3.78
TTAGGACTGGGGACTGGGTAAGTGCTA,-0.532
CTAGGACTGCTACTGCTTTAGTGCTAG,-0.457
CTAGATTTCGGGTATCGATTAGTGCTA,2.35
GACGGTTTCGGGGTTCGGGACGTGCTA,3.56
GACGACATCAGTCTCGAGACGTGCTAG,0.166
CTCTTTCTTTGCTTCACCCTGTGCTAG,1.94
GACGGTATCGACCATCGGGACGTGCTA,-0.362
GACGGTATCGACGCTGGGGACGTGCTA,-0.481
TCATTTTACTTTCTATCACTGTGCTAG,2.06
GGCGGACTGGGACTGGGGACGTGCTAG,-0.754
GGTATTCGGAACTTTTAGCTGTGCTAG,0.322
CTAGGTCTCGGACTGGGTTAGTGCTAG,0.924
TCAAATTTGGAAACCGAACTGTGCTAG,0.65
TCAGGACTGGACTATCGGTTAGTGCTA,-0.54
GACGGTTTTGACACTGGGGACGTGCTA,0.26
TTAGGTTTCAGTCTCGATTAGTGCTAG,3.16
TCAATTTTCTCTGTTCTACTGTGCTAG,1.24
GGCGAACTGAGTATCGAGACGTGCTAG,-0.465
TTAGGTTCCGGTTTCGGGTAGTGCTAG,9.59
CACGGTTTCGACACTGGGGACGTGCTA,4.13
GCCGGTCTCCTTTTCCTGACGTGCTAG,1.57

# Sample 4
# Target: ABI1, truncated, D143A, DHFR fusion (Arabidopsis thaliana)
# Technique: DHFR PCA, deep sequencing
# Medium: yeast
# Setting: methotrexate growth selection, single substitutions
# Added: (+)-ABA 0.11 µM
# Baseline: wild-type fitted maximum
# Reading: higher = stronger binding
# Parent: PYL1, truncated, DHFR fusion (Arabidopsis thaliana); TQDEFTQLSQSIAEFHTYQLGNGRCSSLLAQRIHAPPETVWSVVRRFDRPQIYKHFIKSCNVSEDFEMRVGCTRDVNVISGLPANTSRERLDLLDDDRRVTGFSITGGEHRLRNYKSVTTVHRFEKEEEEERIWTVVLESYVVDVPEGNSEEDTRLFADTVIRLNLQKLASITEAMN; partner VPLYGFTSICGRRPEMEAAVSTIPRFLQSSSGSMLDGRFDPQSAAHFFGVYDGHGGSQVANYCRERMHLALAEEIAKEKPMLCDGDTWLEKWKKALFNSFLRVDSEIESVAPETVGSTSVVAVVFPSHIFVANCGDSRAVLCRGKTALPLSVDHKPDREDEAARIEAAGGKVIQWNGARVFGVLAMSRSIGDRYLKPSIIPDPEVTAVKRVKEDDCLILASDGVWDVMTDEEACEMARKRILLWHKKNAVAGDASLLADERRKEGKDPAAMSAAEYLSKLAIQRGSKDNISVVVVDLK
Substitution,relative binding score [%]
Q2I,72.1
D97C,10.3
T119S,-4.97
S140T,0.625
C72P,5.76
T73W,18.8
Y53A,-5.03
P36E,17.9
F157T,3.38
V118L,-4.96
S9T,37.8
F103A,-2.78
E89F,2.78
A175H,24.6
S11D,32.5
S171K,50.6
E109M,2.36
V43K,-12.8
K54S,-0.492
V121S,-0.807
E130Y,7.13
K58V,3.06
V142R,-3.06
S27Q,2.36

# Sample 5
# Target: NFE2L2, bZIP domain (human)
# Technique: DHFR protein complementation
# Medium: yeast
# Setting: single substitutions, most at no-binding floor
# Baseline: wild-type JUN-FOS pair
# Reading: higher = stronger binding
# Parent: JUN, bZIP domain (human); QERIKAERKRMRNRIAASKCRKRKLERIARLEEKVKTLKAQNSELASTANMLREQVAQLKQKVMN; partner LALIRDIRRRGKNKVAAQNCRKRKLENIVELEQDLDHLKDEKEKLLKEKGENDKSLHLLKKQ
Substitution,binding fitness
A40F,-1.55 natural log
Q41P,-1.22 natural log
Q41N,-1.51 natural log
S43T,-1.34 natural log
L38W,-1.51 natural log
Q55V,-1.6 natural log
L31F,-1.52 natural log
T37W,-1.46 natural log
A46Q,-1.28 natural log
M51G,-1.41 natural log
R53C,-1.37 natural log
L45D,-1.58 natural log
A29P,-1.45 natural log
R30M,-1.36 natural log
V56P,-1.52 natural log
Q41V,-1.4 natural log
R30Y,-1.21 natural log
A46L,-1.46 natural log
E32A,-1.3 natural log
T48D,-1.48 natural log
Q55Y,-1.49 natural log
E44F,-1.52 natural log
K34G,-1.43 natural log
Q55D,-1.51 natural log

# Sample 6
# Target: Histone acetyltransferase KAT6A, winged helix 1, GST fusion (KAT6A, Homo sapiens, UniProt Q92794, residues 1-85)
# Technique: protein binding microarray
# Form: double-stranded DNA, one strand shown
# Medium: in vitro
# Concentration: not given
# Setting: 8-mer, flanks averaged, mean of 2 arrays, mostly near background
# Baseline: not given
# Reading: higher = stronger binding
# Residues (chain): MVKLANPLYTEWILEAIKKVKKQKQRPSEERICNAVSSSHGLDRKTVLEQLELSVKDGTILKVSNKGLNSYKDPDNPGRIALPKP
Sequence,E-score
CCTCGCCA,-0.0224
AGCAAGGC,0.0191
ACCTTCAT,-0.0361
CAGCAACG,-0.0986
ACTTTTCC,0.0974
CTCCAGTA,-0.0406
ACTAGTCC,0.0649
ACTAGCGC,0.343
ACATCAGG,-0.283
ACACACAA,-0.173
AAAGTGGT,-0.228
CTCGTTTC,-0.18
GCCTACAA,-0.135
AGCTATAC,-0.0156
AATGGATA,-0.194
GACTCTAC,-0.165
CAAGGCGC,0.329
CGCCAAAG,0.0697

# Further values, each from its own experiment
Substance,target,test,test system,setting,scale,measurement,result
"PhoQ, residues 284 288 289 292 302 303 SIHMAM","PhoP, residues 12 14 15 18 19 LYFRQ (Escherichia coli, UniProt P23836)","Sort-seq, item: YFP reporter",E. coli,"PhoQ-PhoP variant library, added: 10 µM Mg2+","baseline: high Mg2+ state, higher = stronger signaling",fold induction,16.2

# For quick reference, copied from above (sample 2):
Substitution,normalised enrichment score
R5H,0.471
N11W,0.665
T3G,0.422
S1D,0.503
R6G,-0.056
R5V,0.389
D12A,0.16
R6L,1.37
S1A,0.649
S1F,0.00582
S1Y,0.881
R4P,1.42
T3R,-0.112
L7F,0.16
F8C,0.0357
T2R,0.753
S13R,0.749
V9T,2.02
R5F,-0.365
